{"data": "Experimental data pooled from the literature", "note": "Parts stem from different laboratories: compare values within a part only. Several values in a cell are separate wells, animals, samples, runs or records.", "UniProt O75716, sequence (whole entry, looked up)": "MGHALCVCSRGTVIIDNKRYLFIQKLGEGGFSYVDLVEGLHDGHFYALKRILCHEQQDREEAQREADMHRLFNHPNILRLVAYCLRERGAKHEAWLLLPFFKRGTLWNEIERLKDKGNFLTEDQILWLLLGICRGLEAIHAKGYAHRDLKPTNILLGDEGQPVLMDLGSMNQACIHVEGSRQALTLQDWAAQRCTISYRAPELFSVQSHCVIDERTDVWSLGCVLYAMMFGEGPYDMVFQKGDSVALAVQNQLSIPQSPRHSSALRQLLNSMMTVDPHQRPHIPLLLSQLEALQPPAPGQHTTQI", "UniProt P11802, sequence (whole entry, looked up)": "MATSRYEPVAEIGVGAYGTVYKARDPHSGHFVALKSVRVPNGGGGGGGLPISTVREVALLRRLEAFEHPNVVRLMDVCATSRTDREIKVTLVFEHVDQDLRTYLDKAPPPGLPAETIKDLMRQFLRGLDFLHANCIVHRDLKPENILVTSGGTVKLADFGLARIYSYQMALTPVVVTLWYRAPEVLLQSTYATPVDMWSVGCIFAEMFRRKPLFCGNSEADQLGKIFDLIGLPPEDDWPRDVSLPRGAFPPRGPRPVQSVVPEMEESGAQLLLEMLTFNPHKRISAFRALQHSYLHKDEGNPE", "UniProt Q9UEE5, sequence (whole entry, looked up)": "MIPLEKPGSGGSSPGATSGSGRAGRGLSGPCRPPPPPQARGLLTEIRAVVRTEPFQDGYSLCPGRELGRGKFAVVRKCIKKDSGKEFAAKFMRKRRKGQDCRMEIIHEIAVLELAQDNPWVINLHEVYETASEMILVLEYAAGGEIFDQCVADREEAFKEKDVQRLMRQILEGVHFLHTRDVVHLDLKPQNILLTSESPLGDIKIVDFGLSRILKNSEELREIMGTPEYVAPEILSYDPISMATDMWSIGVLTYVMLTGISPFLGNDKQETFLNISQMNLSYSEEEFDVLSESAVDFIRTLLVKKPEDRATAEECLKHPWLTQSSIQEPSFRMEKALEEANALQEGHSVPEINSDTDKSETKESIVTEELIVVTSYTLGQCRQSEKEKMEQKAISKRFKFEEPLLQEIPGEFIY", "UniProt Q13554, sequence (whole entry, looked up)": "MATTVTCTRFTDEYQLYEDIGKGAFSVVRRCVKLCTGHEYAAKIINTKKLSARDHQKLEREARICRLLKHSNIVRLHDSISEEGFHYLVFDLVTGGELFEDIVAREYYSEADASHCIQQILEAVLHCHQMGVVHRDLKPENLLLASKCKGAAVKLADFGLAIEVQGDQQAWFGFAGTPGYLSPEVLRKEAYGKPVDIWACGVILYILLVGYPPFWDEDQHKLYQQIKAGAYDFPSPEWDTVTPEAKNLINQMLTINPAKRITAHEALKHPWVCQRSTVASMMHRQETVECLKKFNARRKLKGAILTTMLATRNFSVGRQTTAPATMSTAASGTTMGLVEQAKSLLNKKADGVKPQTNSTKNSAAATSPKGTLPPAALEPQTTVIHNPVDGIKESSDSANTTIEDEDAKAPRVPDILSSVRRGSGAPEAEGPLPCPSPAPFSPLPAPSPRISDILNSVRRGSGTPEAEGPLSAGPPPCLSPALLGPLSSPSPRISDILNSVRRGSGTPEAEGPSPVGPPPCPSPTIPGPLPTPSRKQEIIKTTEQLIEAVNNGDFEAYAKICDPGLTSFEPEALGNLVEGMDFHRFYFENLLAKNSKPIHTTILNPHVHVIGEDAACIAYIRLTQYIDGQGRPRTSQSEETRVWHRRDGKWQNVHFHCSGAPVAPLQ", "UniProt Q14680, sequence (whole entry, looked up)": "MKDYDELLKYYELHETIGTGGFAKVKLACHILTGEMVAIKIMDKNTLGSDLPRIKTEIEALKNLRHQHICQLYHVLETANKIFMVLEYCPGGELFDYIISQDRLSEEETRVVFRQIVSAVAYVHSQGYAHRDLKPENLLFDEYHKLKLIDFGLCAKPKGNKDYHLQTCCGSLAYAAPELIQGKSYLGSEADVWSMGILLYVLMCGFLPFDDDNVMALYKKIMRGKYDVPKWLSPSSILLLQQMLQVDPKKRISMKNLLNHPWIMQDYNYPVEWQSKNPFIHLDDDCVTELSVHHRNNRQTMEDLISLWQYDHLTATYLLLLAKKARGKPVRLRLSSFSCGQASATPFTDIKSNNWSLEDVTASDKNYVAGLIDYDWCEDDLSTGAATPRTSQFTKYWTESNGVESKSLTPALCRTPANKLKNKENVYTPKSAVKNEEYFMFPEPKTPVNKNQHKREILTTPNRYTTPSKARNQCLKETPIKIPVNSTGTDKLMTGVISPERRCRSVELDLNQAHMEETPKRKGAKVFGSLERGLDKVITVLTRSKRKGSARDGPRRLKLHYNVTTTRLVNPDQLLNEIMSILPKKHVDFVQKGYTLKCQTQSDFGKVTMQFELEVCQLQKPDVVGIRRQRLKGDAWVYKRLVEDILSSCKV", "UniProt P30291, sequence (whole entry, looked up)": "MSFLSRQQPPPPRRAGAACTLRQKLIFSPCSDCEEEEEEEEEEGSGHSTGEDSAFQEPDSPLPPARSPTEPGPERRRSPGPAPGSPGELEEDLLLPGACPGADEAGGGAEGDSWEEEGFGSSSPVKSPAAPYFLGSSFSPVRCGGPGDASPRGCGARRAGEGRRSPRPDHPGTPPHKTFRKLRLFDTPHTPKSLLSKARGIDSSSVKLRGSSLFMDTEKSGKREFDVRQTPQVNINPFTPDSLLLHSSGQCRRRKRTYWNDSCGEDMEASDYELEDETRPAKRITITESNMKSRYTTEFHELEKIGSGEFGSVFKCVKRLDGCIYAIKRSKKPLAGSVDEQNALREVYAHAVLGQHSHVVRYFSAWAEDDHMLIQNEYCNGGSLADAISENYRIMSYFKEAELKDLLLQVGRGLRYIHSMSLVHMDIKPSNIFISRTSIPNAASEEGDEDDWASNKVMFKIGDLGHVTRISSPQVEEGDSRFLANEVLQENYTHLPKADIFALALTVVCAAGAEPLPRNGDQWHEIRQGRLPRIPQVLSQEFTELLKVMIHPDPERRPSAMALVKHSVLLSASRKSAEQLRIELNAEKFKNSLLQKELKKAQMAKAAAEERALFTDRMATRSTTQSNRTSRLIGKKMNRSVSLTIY", "UniProt Q16644, sequence (whole entry, looked up)": "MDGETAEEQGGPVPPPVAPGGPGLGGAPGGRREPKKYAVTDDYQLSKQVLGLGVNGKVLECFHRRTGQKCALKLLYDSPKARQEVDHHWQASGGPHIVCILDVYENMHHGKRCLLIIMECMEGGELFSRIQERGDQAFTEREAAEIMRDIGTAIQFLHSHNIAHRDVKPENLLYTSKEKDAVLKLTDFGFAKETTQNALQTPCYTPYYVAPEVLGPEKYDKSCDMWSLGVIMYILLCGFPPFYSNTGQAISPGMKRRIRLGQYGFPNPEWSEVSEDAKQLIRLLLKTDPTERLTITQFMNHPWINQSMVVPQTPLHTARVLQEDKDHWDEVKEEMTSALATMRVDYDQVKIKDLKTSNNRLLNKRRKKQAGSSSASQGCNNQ", "UniProt P06493, sequence (whole entry, looked up)": "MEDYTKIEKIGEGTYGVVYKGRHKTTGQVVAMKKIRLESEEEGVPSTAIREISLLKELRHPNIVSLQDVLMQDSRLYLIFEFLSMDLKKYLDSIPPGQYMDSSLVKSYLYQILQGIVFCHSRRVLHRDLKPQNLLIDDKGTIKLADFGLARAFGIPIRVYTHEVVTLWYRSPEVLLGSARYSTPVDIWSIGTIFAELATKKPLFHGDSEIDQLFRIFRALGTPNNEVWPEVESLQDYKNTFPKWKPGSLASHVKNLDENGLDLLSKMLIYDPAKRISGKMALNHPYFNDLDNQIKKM", "UniProt Q9UQB9, sequence (whole entry, looked up)": "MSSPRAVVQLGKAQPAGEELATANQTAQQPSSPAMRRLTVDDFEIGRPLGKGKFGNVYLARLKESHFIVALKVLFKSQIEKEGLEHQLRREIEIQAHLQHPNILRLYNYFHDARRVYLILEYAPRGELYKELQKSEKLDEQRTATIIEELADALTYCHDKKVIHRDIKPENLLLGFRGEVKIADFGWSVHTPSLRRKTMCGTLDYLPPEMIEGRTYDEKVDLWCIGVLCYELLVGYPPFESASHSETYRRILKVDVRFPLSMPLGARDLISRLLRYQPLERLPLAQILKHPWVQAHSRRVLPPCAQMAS"}
{"data": "Block 1", "Structure (SMILES)": "CC(C)C[C@@H]1NC(=O)[C@@H](N(C)C(=O)[C@H](CC2CCC2)NC(=O)[C@@H]2C[C@@H](F)CN2C(=O)C2(C(F)(F)F)CC(F)(F)C2)CCCCNC(=O)C2(CC2)NC(=O)[C@H](Cc2cc(Cl)ccc2Cl)N(C)C1=O", "relative to": "DMSO"}
{"cell line": "NCI-H446", "assay": "Vi-Cell counting", "conditions": "2 nM, 3 days, together with: Mps1 inhibitor 3 nM", "cell count": "0.853 and 0.921"}
{"cell line": "MDA-MB-231, doxycycline-inducible E2F1", "conditions": "20 nM, 6 days, no doxycycline", "cell count": "0.88 and 0.895 and 0.924"}
{"cell line": "Jurkat, doxycycline-inducible E2F1", "conditions": "600 nM, 6 days, doxycycline added", "cell count": "0.174 and 0.258 and 0.168"}
{"cell line": "NCI-H1299", "assay": "Vi-Cell counting", "conditions": "20 nM, 6 days", "cell count": "0.903 and 1.03"}
{"data": "Block 2", "Structure (SMILES)": "C=CCc1ccc(O)c(-c2cc(CC=C)ccc2O)c1", "method": "inside-out patch clamp", "concentration": "30 µM", "ANO1 del476-501/E649A": "Anoctamin-1 (ANO1, Homo sapiens, UniProt Q5XXA6, del476-501/E649A)", "UniProt Q5XXA6, sequence (whole entry, unmodified, looked up)": "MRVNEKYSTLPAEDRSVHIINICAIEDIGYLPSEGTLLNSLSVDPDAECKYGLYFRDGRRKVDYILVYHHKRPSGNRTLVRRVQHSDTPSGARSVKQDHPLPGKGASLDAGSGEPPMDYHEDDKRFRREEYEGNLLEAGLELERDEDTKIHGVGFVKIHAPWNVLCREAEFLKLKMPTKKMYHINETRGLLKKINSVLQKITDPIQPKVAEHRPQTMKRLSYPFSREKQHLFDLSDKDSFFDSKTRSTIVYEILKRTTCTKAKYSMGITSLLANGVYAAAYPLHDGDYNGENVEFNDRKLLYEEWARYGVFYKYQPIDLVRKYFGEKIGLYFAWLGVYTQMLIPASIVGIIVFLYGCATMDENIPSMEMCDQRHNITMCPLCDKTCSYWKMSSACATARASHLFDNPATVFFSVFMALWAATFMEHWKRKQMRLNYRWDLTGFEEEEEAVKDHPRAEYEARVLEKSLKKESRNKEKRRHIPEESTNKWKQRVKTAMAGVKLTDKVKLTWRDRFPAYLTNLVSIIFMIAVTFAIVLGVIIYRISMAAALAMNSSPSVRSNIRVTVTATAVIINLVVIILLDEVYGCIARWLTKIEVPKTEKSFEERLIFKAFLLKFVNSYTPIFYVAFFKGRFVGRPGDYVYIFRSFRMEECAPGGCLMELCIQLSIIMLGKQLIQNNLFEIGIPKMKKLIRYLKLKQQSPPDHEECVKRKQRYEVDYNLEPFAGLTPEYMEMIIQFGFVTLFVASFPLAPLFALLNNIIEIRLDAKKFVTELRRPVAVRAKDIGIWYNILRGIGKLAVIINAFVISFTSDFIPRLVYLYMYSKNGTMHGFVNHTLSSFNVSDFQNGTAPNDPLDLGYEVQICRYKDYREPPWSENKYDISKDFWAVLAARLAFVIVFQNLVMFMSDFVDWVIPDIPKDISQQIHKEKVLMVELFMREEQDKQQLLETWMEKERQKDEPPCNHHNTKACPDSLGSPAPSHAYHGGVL"}
{"target": "TMEM16A (human) K603A/E623A", "assay": "chloride current", "conditions": "membrane voltage 100 mV", "normalized current": 0.706}
{"target": "ANO1 del476-501/E649A", "assay": "ion current", "conditions": "E623A mutant at -20 mV", "normalized current": -0.124}
{"target": "Anoctamin-1 (ANO1, Homo sapiens, UniProt Q5XXA6, del476-501/R541A)", "assay": "chloride current", "conditions": "membrane voltage 80 mV", "normalized current": 0.543}
{"target": "ANO1 del476-501/E649A", "assay": "ion current", "conditions": "E623A mutant at 120 mV", "normalized current": 1}
{"data": "Block 3", "Structure (SMILES)": "CC(=O)N1CCC(c2ccc(C(=O)NC(=N)N)cc2C(F)(F)F)CC1", "method": "competition with immobilised ligand", "concentration": "1 µM"}
{"target": "MAP2K4 (Homo sapiens, UniProt P45985)", "assay": "cell-free assay", "remaining binding": "95%"}
{"target": "MYLK2 (Homo sapiens, UniProt Q9H1R3)", "assay": "cell-free assay", "remaining binding": "85%"}
{"target": "MAP3K15 (Homo sapiens, UniProt Q6ZN16)", "assay": "cell-free assay", "remaining binding": "100%"}
{"target": "WEE1 (Homo sapiens, UniProt P30291)", "assay": "cell-free assay", "remaining binding": "100%"}
{"target": "SIK2 (Homo sapiens, UniProt Q9H0K1)", "assay": "cell-free assay", "remaining binding": "100%"}
{"target": "Ribosomal protein S6 kinase alpha-6, C-terminal kinase domain (RPS6KA6, Homo sapiens, UniProt Q9UK32)", "assay": "cell-free assay", "remaining binding": "100%"}
{"target": "MKNK2 (Homo sapiens, UniProt Q9HBH9)", "assay": "cell-free assay", "remaining binding": "100%"}
{"target": "FLT3 (Homo sapiens, UniProt P36888, D835H)", "assay": "cell-free assay", "remaining binding": "96%"}
{"target": "Aurora kinase C (AURKC, Homo sapiens, UniProt Q9UQB9)", "assay": "cell-free assay", "remaining binding": "100%"}
{"target": "MAP3K4 (Homo sapiens, UniProt Q9Y6R4)", "assay": "cell-free assay", "remaining binding": "98%"}
{"target": "MAP3K6 (Homo sapiens, UniProt O95382)", "assay": "cell-free assay", "remaining binding": "86%"}
{"target": "Ribosomal protein S6 kinase alpha-2, N-terminal kinase domain (RPS6KA2, Homo sapiens, UniProt Q15349)", "assay": "cell-free assay", "remaining binding": "90%"}
{"target": "TXK (Homo sapiens, UniProt P42681)", "assay": "binding", "remaining binding": "100%"}
{"target": "MAP3K1 (Homo sapiens, UniProt Q13233)", "assay": "cell-free assay", "remaining binding": "96%"}
{"target": "MAP3K19 (Homo sapiens, UniProt Q56UN5)", "assay": "cell-free assay", "remaining binding": "100%"}
{"target": "MELK (Homo sapiens, UniProt Q14680)", "assay": "cell-free assay", "remaining binding": "100%"}
{"target": "STK16 (Homo sapiens, UniProt O75716)", "assay": "cell-free assay", "remaining binding": "100%"}
{"target": "NEK3 (Homo sapiens, UniProt P51956)", "assay": "cell-free assay", "remaining binding": "79%"}
{"data": "Block 4", "Compound": "COc1ccc(Cl)cc1NC(=O)Nc1cc(C)nc2ccccc12", "read-out": "enzyme activity", "action": "inhibitor", "concentration": "0.5 µM", "relative to": "control"}
{"target": "RPS6KA5 (Homo sapiens, UniProt O75582)", "remaining activity": "88.4%"}
{"target": "STK16 (Homo sapiens, UniProt O75716)", "remaining activity": "105%"}
{"target": "EPHB1 (Homo sapiens, UniProt P54762)", "remaining activity": "102%"}
{"target": "STK17A (Homo sapiens, UniProt Q9UEE5)", "remaining activity": "98.2%"}
{"target": "Cyclin-dependent kinase 1, with cyclin B (CDK1, Homo sapiens, UniProt P06493)", "remaining activity": "81.1%"}
{"target": "SRMS (Homo sapiens, UniProt Q9H3Y6)", "remaining activity": "97.6%"}
{"target": "AXL (Homo sapiens, UniProt P30530)", "remaining activity": "94%"}
{"target": "PDPK1 (Homo sapiens, UniProt O15530)", "remaining activity": "83.9%"}
{"target": "Cyclin-dependent kinase 4, with cyclin D3 (CDK4, Homo sapiens, UniProt P11802)", "remaining activity": "98.5%"}
{"target": "EPHA4 (Homo sapiens, UniProt P54764)", "remaining activity": "104%"}
{"target": "HIPK2 (Homo sapiens, UniProt Q9H2X6)", "remaining activity": "101%"}
{"target": "MAPKAPK3 (Homo sapiens, UniProt Q16644)", "remaining activity": "101%"}
{"target": "Cyclin-dependent kinase 6, with cyclin D3 (CDK6, Homo sapiens, UniProt Q00534)", "remaining activity": "99%"}
{"target": "TSSK2 (Homo sapiens, UniProt Q96PF2)", "remaining activity": "94%"}
{"target": "HIPK4 (Homo sapiens, UniProt Q8NE63)", "remaining activity": "109%"}
{"target": "CAMK2B (Homo sapiens, UniProt Q13554)", "remaining activity": "103%"}
{"target": "WNK3 (Homo sapiens, UniProt Q9BYP7)", "remaining activity": "99.9%"}
{"target": "BLK (Homo sapiens, UniProt P51451)", "remaining activity": "99.8%"}
{"target": "PHKG1 (Homo sapiens, UniProt Q16816)", "remaining activity": "102%"}
{"target": "MAP4K4 (Homo sapiens, UniProt O95819)", "remaining activity": "84.7%"}
{"target": "EPHB4 (Homo sapiens, UniProt P54760)", "remaining activity": "93.7%"}
